# Results of several laboratories.
# Each line is one published result; not all experiments were run side by side. ± gives the spread as reported.
# MRGPRX2: Mas-related G-protein coupled receptor member X2 (MRGPRX2, Homo sapiens, UniProt Q96LB1)
# CHRM1: Muscarinic acetylcholine receptor M1 (CHRM1, Homo sapiens, UniProt P11229)
SMILES,target,test,test system,conditions,EC50 [µM]
CC[C@H](C)[C@H](NC(=O)[C@H](Cc1ccccc1)NC(=O)[C@H](CC(=O)O)NC(=O)[C@H](CCCNC(=N)N)NC(=O)[C@@H](NC(=O)[C@H](C)NC(=O)[C@H](CC(C)C)NC(=O)[C@H](CC(N)=O)NC(=O)[C@H](CC(=O)O)NC(=O)[C@H](CC(C)C)NC(=O)[C@@H](NC(=O)[C@@H](NC(=O)[C@H](CO)NC(=O)[C@H](CCSC)NC(=O)[C@H](CCC(=O)O)NC(=O)[C@H](CC(=O)O)NC(=O)[C@H](CO)NC(=O)[C@H](Cc1ccccc1)NC(=O)[C@H](CO)NC(=O)CNC(=O)[C@H](CC(=O)O)NC(=O)[C@H](C)NC(=O)[C@@H](N)Cc1c[nH]cn1)[C@@H](C)O)[C@@H](C)CC)[C@@H](C)O)C(=O)N[C@@H](CC(N)=O)C(=O)N[C@@H](Cc1c[nH]c2ccccc12)C(=O)N[C@@H](CC(C)C)C(=O)N[C@H](C(=O)N[C@@H](CCC(N)=O)C(=O)N[C@H](C(=O)N[C@@H](CCCCN)C(=O)N[C@H](C(=O)N[C@H](C(=O)N[C@@H](CC(=O)O)C(=O)O)[C@@H](C)O)[C@@H](C)CC)[C@@H](C)O)[C@@H](C)CC,"GLP2R (Homo sapiens, UniProt O95838)","reporter gene, agonist, CRE-luciferase",HEK-293T,12 h,0.00656
CC(C)C[C@H](NC(=O)[C@H](Cc1ccccc1)NC(=O)[C@H](Cc1ccc(O)cc1)NC(=O)CNC(=O)[C@H](CCCCN)NC(=O)[C@H](CO)NC(=O)[C@H](CCC(N)=O)NC(=O)CNC(=O)[C@@H](NC(=O)[C@H](CO)NC(=O)[C@@H]1CCCN1C(=O)[C@H](CO)NC(=O)[C@H](CCC(N)=O)NC(=O)[C@H](Cc1ccc(O)cc1)NC(=O)[C@H](CCC(=O)O)NC(=O)[C@H](C)NC(=O)[C@H](CCCCN)NC(=O)[C@@H](N)Cc1ccccc1)C(C)C)C(=O)N[C@@H](Cc1ccccc1)C(=O)N[C@@H](CCCNC(=N)N)C(=O)N1CCC[C@H]1C(=O)N[C@@H](CCCNC(=N)N)C(=O)N[C@@H](CC(N)=O)C(N)=O,"Neuromedin-U receptor 1 (Mus musculus, UniProt O55040)","β-arrestin recruitment, agonist",,,0.0005
CC[C@H](C)[C@H](NC(=O)[C@H](CCCCN)NC(=O)[C@H](CCC(N)=O)NC(=O)[C@H](CCCNC(=N)N)NC(=O)[C@H](CC(N)=O)NC(=O)[C@H](CO)NC(=O)[C@H](CO)NC(=O)[C@H](Cc1ccccc1)NC(C)=O)C(=O)N[C@@H](CC(C)C)C(=O)N[C@@H](CCC(=O)O)C(=O)N[C@@H](CCCNC(=N)N)C(=O)N[C@H](C(=O)N[C@@H](CCC(=O)O)C(=O)N[C@H](C(=O)N[C@@H](CC(C)C)C(=O)N[C@@H](CC(N)=O)C(=O)N[C@@H](CCC(N)=O)C(=O)N[C@@H](CCC(=O)O)C(=O)N[C@@H](Cc1c[nH]c2ccccc12)C(N)=O)[C@@H](C)CC)[C@@H](C)O,MRGPRX2,"β-arrestin-2 recruitment, agonist",,,> 20
c1cc(N2CCNCC2)c2cc[nH]c2c1,CHRM1,"ERK1/2 phosphorylation, agonist",CHO cells,,> 20
CCCCC/C=C\C/C=C\C/C=C\C/C=C\CCCC(=O)NCCO,"Trpv1 (Mus musculus, UniProt Q704Y3, S513T)","ion current, agonist, whole-cell patch clamp",,"24 °C, S513T, +80 mV",5.24 ± 0.89
NC(=O)[C@@H]1CCCN1C(=O)[C@H](CCC(=O)O)NC(=O)[C@@H]1CCC(=O)N1,MRGPRX2,"β-arrestin-2 recruitment, agonist",,,> 20
C[C@H](N)Cn1ncc2ccc3c(c21)CCCO3,"5-hydroxytryptamine receptor 2B (Rattus norvegicus, UniProt P30994)","contraction, agonist",rat stomach fundus,,0.0019 ± 0.0008
C[N+](C)(C)C,"Chrnd/Chrna1/Chrne (Mus musculus, UniProt P02716+P04756+P20782)","channel open probability, agonist",mouse,wild type,1100
COc1cc(C(=O)N2CC[C@@H](O)[C@@H](N)C2)cc2nc(-c3cc4ccccc4n3CC3CC3)n(C)c12,"CHRNA1 (Homo sapiens, UniProt P02708)","agonist, intracellular Ca2+ fluorescence",,,> 50.1
O=C1c2ccccc2C(=O)C1c1ccccc1,"Nuclear receptor subfamily 1 group I member 3 (Homo sapiens, UniProt Q14994)",cell-based,,,525 ± 148
Clc1cc2c(cc1Cl)Oc1cc(Cl)c(Cl)cc1O2,"Uncharacterized protein (Takifugu rubripes, UniProt Q4JHL6)","reporter gene, agonist, dual-luciferase",COS-7,24 h,0.0003 ± 0.0001
CN1CCC[C@H]1c1cccnc1,"Chrnd/Chrna1/Chrne (Mus musculus, UniProt P02716+P04756+P20782, G173K/S470W)",cell-based,,,0.7
O=C(O)c1ccc(CN2C(=O)CN(C(=O)c3ccco3)c3cc(-c4ccccc4)c(Oc4ccc(C(=O)O)cc4)cc32)cc1,"Soluble guanylate cyclase alpha1/beta1 complex (Homo sapiens, UniProt Q02108+Q02153)","enzyme activity, activator, purified recombinant enzyme",,,0.766
Cc1cc(N2CCNCC2)nc2ccccc12,CHRM1,"ERK1/2 phosphorylation, agonist",CHO cells,,> 20
C[C@@H](O)[C@@H]1NC(=O)[C@H](CCCCN)NC(=O)[C@H](Cc2c[nH]c3ccccc23)NC(=O)[C@H](Cc2ccccc2)NC(=O)[C@H](Cc2ccccc2)NC(=O)[C@H](CC(N)=O)NC(=O)[C@H](CCCCN)NC(=O)[C@@H](NC(=O)[C@@H]2CCCN2)CSSC[C@@H](C(=O)N[C@@H](CCCCN)C(=O)O)NC(=O)[C@H](CO)NC(=O)[C@H](CO)NC(=O)[C@H](Cc2ccccc2)NC1=O,"Mas-related G-protein receptor X2, truncated (Canis lupus familiaris, UniProt A0A4Y5P885)","calcium mobilization, agonist, FLIPR",U2OS expressing truncated receptor,,0.0631

# Excerpt of the above:
SMILES,target,test,test system,conditions,EC50 [µM]
C[N+](C)(C)C,"Chrnd/Chrna1/Chrne (Mus musculus, UniProt P02716+P04756+P20782)","channel open probability, agonist",mouse,wild type,1100
COc1cc(C(=O)N2CC[C@@H](O)[C@@H](N)C2)cc2nc(-c3cc4ccccc4n3CC3CC3)n(C)c12,"CHRNA1 (Homo sapiens, UniProt P02708)","agonist, intracellular Ca2+ fluorescence",,,> 50.1
